Results gathered from unrelated publications.
Each line is one published result; not all experiments were run side by side.
T1: SNCA 5' UTR IRE RNA A-bulge hairpin (Homo sapiens); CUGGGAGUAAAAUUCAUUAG
T2: DNA aptamer; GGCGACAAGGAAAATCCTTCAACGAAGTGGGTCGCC
T3: RNA G4 TERRA multimeric G-quadruplex (Homo sapiens); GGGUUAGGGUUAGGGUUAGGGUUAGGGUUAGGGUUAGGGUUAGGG
T4: DNA aptamer; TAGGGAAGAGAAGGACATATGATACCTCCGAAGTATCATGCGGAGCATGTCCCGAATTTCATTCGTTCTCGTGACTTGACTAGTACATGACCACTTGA
T5: DNA aptamer; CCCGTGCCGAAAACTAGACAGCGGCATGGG
T6: pre-miR-21 RNA (Homo sapiens); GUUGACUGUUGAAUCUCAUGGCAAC
T7: DNA aptamer adenosine aptamer, site 1 removed; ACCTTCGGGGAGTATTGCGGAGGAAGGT
T8: DNA aptamer, 8-thienyl-dG at G6; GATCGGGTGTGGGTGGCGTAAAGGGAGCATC
T9: pre-miR-21 RNA, hairpin loop region (Homo sapiens); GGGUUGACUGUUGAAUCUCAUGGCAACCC
T10: DNA aptamer; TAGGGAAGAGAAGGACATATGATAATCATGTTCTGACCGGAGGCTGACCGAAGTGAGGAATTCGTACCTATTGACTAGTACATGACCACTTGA

| Structure (SMILES) | target | assay | conditions | Kd |
| --- | --- | --- | --- | --- |
| CCOC(=O)C1=C(Nc2ccccc2)SC(=Cc2ccc(OCCOCCOCCOCCNC(=O)CCCOc3ccc(-n4c(SCC(=O)Nc5ccc6cn[nH]c6c5)nnc4-c4ccncc4)cc3)c(O)c2)C1=O | T1, SNCA 5' UTR IRE RNA A-bulge hairpin (Homo sapiens) | MST |  | 103 nM |
| c1ccc([C@H]2CN3CCSC3=N2)cc1 | T2, DNA aptamer | 1H NMR titration | 500 µM, pH 6.8, 5 °C, KCl 245 mM, average of four imino protons | 500000 nM |
| CN1CCN(c2ccc(-c3nc(-c4ccc(N5C(=O)c6cccc7c(N8CCN(C)CC8)ccc(c67)C5=O)cc4)[nH]c3-c3ccc(N4CCN(C)CC4)cc3)cc2)CC1 | T3, RNA G4 TERRA multimeric G-quadruplex (Homo sapiens) | fluorescence titration |  | 22200 nM |
| CC(=O)[C@H]1CC[C@H]2[C@@H]3CCC4=CC(=NOCC(=O)O)CC[C@]4(C)[C@H]3CC[C@]12C | T4, DNA aptamer | APAA | NaCl 100 mM | 7.37 nM |
| C[C@H](Cn1cnc2c(N)ncnc21)OCP(=O)(O)O | T5, DNA aptamer | interferometric free solution assay | 2 h, 22 °C, NaCl 150 mM, single-site fit | 9.04 nM |
| O=C(CSc1nnc(-c2ccncc2)n1-c1ccc(Br)cc1)Nc1ccc2cn[nH]c2c1 | T1, SNCA 5' UTR IRE RNA A-bulge hairpin (Homo sapiens) | MST |  | 66 nM |
| CN1CCN(c2ccc(-c3ccc4[nH]c(-c5ccc(OCCCC(=O)N6CCN(c7nncc8sccc78)CC6)cc5)nc4c3)cc2)CC1 | T6, pre-miR-21 RNA (Homo sapiens) | microscale thermophoresis |  | 336 nM |
| Nc1ncnc2c1ncn2[C@@H]1O[C@H](CO)[C@@H](O)[C@H]1O | T7, DNA aptamer adenosine aptamer, site 1 removed | ITC | pH 7.6, 25 °C, Na+ 100 mM, one-site model | 12000 nM |
| C[C@@H]1Cc2c(Cl)cc(C(=O)N[C@@H](Cc3ccccc3)C(=O)O)c(O)c2C(=O)O1 | T8, DNA aptamer, 8-thienyl-dG at G6 | fluorescence titration | pH 8.0, 20 °C, K+ 5 mM, with: OTA 3 µM | 10500 nM |
| C=CCN(CC(=O)N[C@@H](CCCNC(=N)N)C(=O)NCC(=O)NCC(N)=O)C(=O)CN(CC1CCCO1)C(=O)CNCCc1c[nH]c2ccccc12 (some centres unmarked) | T9, pre-miR-21 RNA, hairpin loop region (Homo sapiens) | in-line cleavage | pH 8.5, apparent | 164000 nM |
| C[C@]12CC[C@@H]3c4ccc(O)cc4C(=NOCC(=O)O)C[C@H]3[C@@H]1CC[C@@H]2O | T10, DNA aptamer | APAA | NaCl 100 mM | 4.74 nM |

Some of these lines once more:
| Structure (SMILES) | target | assay | conditions | Kd |
| --- | --- | --- | --- | --- |
| CCOC(=O)C1=C(Nc2ccccc2)SC(=Cc2ccc(OCCOCCOCCOCCNC(=O)CCCOc3ccc(-n4c(SCC(=O)Nc5ccc6cn[nH]c6c5)nnc4-c4ccncc4)cc3)c(O)c2)C1=O | T1, SNCA 5' UTR IRE RNA A-bulge hairpin (Homo sapiens) | MST |  | 103 nM |
